{"data": "Published values collected from several papers", "note": "Compare with care: the assays were run in different laboratories. Numbers after ± are the reported error."}
{"SMILES": "CN1C(=O)C2(Nc3ccccc3C(=O)N2Cc2ccccc2)c2cc(Br)ccc21 (centres unmarked)", "test system": "octanol/water", "setting": "pH 7.4", "logD": "3.8 ± 0.2"}
{"SMILES": "CC(=O)Nc1ncc(CN2CC[C@H](Oc3cccc([18F])n3)C[C@@H]2C)s1", "assay": "shake flask", "test system": "1-octanol/sodium phosphate buffer 0.15 M", "setting": "pH 7.4", "logD": "3.04 ± 0.01"}
{"SMILES": "O=C([O-])CN1CCN(CC(=O)[O-])CC(Cc2ccc(NC(=S)NCCOCCOCCOCCOCCOCCOCCOCCNC(=O)CCCC(=O)NCc3ccc(-c4nncnn4)cc3)cc2)N(CC(=O)[O-])CC1.[64Cu+2] (centres unmarked)", "test system": "1-octanol/PBS", "setting": "pH 7.4", "logD": "-2.44 ± 0.08"}
{"SMILES": "O=C(O[C@H](CO)C(F)(F)F)N1C[C@@H]2[C@H](C1)[C@H]2c1ccn(-c2ccc([18F])nc2)n1", "assay": "shake flask", "test system": "n-octanol/PBS", "logD": "2.66 ± 0.01"}
{"SMILES": "Cc1ccccc1-c1cc(N2CCN(C)CC2)ccc1N(C)C(=O)C(C)(C)c1cc(C(F)(F)F)cc(C(F)(F)F)c1", "test system": "octanol/acetate buffer", "setting": "pH 5.0", "logD": 3.85}
{"SMILES": "C=C(C)C(=O)Nc1ccc(-c2c(-c3ccc(Oc4nccc(C)n4)cc3)c3c(N)ncnc3n2C)cc1", "assay": "chromatographic", "setting": "pH 7.4", "logD": 4.1}
{"SMILES": "COC(=O)c1cn(C2(C)CC(C)C(=O)C(C(CC3CC(=O)NC(=O)C3)OC(C)=O)C2)nn1 (centres unmarked)", "setting": "pH 7.4", "logD": -0.069}
{"SMILES": "CN(C)c1ccc2c(-c3ccccc3C(=O)OCCOCC[18F])c3ccc(N(C)C)cc3[o+]c2c1", "test system": "octanol/PBS", "setting": "pH 7.4", "logD": "1.9 ± 0.01"}
{"SMILES": "O=C(O)CC[C@H](NC(=O)N[C@@H](CCC(=O)NCCCCCNC(=O)CN1CCNCCN(Cc2cccc(C(=O)[O-])n2)CC1)C(=O)[O-])C(=O)O.[64Cu+2]", "assay": "shake-flask", "test system": "1-octanol/PBS", "setting": "pH 7.4", "logD": "-1.66 ± 0.26"}
{"SMILES": "COc1cc2nc(N3CCCCC3)nc(NC3CCN(C)CC3)c2cc1OC", "assay": "chromatographic", "setting": "pH 3", "logD": 1}
{"SMILES": "[Br-].c1ccc(-n2nc(-c3ccccn3)n[n+]2-c2ccccc2)cc1", "assay": "shake-flask", "test system": "octanol/PBS", "setting": "pH 7.4", "logD": -1.8}
{"SMILES": "Oc1cccc(-c2cccc(O)n2)n1.[Cl-].[Cl-].[Ru+2].c1cnc2c(c1)ccc1cccnc12.c1cnc2c(c1)ccc1cccnc12", "assay": "shake flask", "test system": "octanol/phosphate buffer", "setting": "pH 8.00", "logD": 1.7}
{"SMILES": "Cc1cnc(Nc2cc(C)c(C)c(C)c2)nc1Nc1ccc2oc(=O)[nH]c2c1", "setting": "pH 7.4", "logD": 4.2}
{"SMILES": "Oc1ccccc1-n1nc(-c2ccccc2)n[n+]1-c1ccccc1.[Br-]", "assay": "shake-flask", "test system": "octanol/PBS", "setting": "pH 7.4", "logD": 1.9}
{"SMILES": "CC(C)(C)[C@H](NC(=O)C(F)F)C(=O)N1C[C@H]2[C@@H]([C@H]1C(=O)N[C@H](C#N)C[C@@H]1CCCNC1=O)C2(C)C", "logD": "~1.5"}
{"SMILES": "C[C@H](Oc1cc(-c2cnn(C3CCN(CC[18F])CC3)c2)cnc1N)c1c(Cl)ccc(F)c1Cl", "test system": "octanol/PBS", "setting": "pH 7.4", "logD": 1.43}
{"SMILES": "[2H]C1([2H])C[C@@H](C[C@@H](C#N)NC(=O)[C@@H]2[C@@H]3[C@H](CN2C(=O)[C@@H](NC(=O)C(F)(F)F)C(C)(C)C)C3(C)C)C(=O)N1", "logD": 1.88}
{"SMILES": "CN(C)c1ccc(-c2nc3ccc(OCCCCCN4CCN5CCN(CC4)CC(=O)[O][Al]([18F])[O]C(=O)C5)cc3s2)cc1", "assay": "shake-flask", "test system": "n-octanol/PBS", "logD": "0.74 ± 0.004"}
{"SMILES": "Cc1cccc(CSc2nc(N)c(C#N)c(-c3cccc(O[11CH3])c3)c2C#N)n1", "test system": "1-octanol/phosphate buffer 0.1 M", "setting": "pH 7.4", "logD": 3.25}
{"SMILES": "Oc1ccccc1-c1nn(-c2ccccc2)[n+](-c2ccccc2)n1.[Br-]", "assay": "shake-flask", "test system": "octanol/PBS", "setting": "pH 7.4", "logD": -0.1}
{"SMILES": "COc1cc2c(=O)c(C(=O)NCCNCCO)cn(Cc3ccccc3)c2cc1OCc1ccc(C(C)(C)C)cc1", "assay": "shake-flask", "test system": "1-octanol/PBS", "setting": "2 h, pH 7.4", "logD": 2.7}
{"SMILES": "Cc1ccccc1-c1cc(N2CCN(Cc3ccccc3)CC2)ccc1N(C)C(=O)C(C)(C)c1cc(C(F)(F)F)cc(C(F)(F)F)c1", "test system": "octanol/acetate buffer", "setting": "pH 5.0", "logD": "> 5"}
{"SMILES": "CC1C(=O)OC2C3C1CCC(C)C3(N)CCC2(C)O (centres unmarked)", "setting": "pH 7.4", "logD": -0.626}
{"SMILES": "O=C(c1ccc(C23CC(S(F)(F)(F)(F)F)(CO2)C3)cc1)N1CCN(c2ncccn2)CC1", "setting": "pH 7.4", "logD": 3.3}
{"SMILES": "O=C([O-])CN1CCN(CC(=O)[O-])CCN(C(CCC(=O)NCCCCCNC(=O)CCC(NC(=O)NC(CCC(=O)O)C(=O)O)C(=O)O)C(=O)O)CC1.[64Cu+2] (centres unmarked)", "assay": "shake-flask", "test system": "1-octanol/PBS", "setting": "pH 7.4", "logD": "-2.21 ± 0.35"}
{"SMILES": "Oc1cccc(-c2cccc(O)n2)n1.[Cl-].[Cl-].[Ru+2].c1cnc2c(c1)c1c(c3cccnc32)OCCO1.c1cnc2c(c1)c1c(c3cccnc32)OCCO1", "assay": "shake flask", "test system": "octanol/phosphate buffer", "setting": "pH 7.40", "logD": 1.81}
